Measured values pooled from the literature.
Lines come from different studies, so protocols differ. Numbers after ± are the reported error.

| Compound | target or system | assay | system | setting | how to read | measurement | result |
| --- | --- | --- | --- | --- | --- | --- | --- |
| CC[C@H](C)[C@H](NC(=O)[C@H](CO)NC(=O)[C@@H]1CCCN1C(=O)[C@H](CO)NC(=O)[C@@H](N)CCSC)C(=O)N[C@@H](CC(C)C)C(=O)N[C@@H](CCCCN)C(=O)N[C@@H](Cc1c[nH]cn1)C(=O)N[C@@H](Cc1c[nH]c2ccccc12)C(=O)N[C@@H](CO)C(=O)N[C@@H](CCCNC(=N)N)C(=O)N[C@@H](CCC(N)=O)C(=O)NCC(=O)NCC(=O)NCC(=O)N[C@@H](CCCCN)C(=O)N[C@@H](CCCCN)C(=O)N[C@@H](CC(C)C)C(=O)N[C@@H](CC(C)C)C(=O)NCC(=O)N[C@@H](CC(C)C)C(=O)N[C@@H](CC(C)C)C(=O)N[C@@H](CC(C)C)C(=O)N[C@@H](CCCCN)C(=O)N[C@@H](CC(C)C)C(=O)N[C@@H](CCCCN)C(=O)N[C@@H](CC(C)C)C(=O)N[C@@H](CCCCN)C(=O)O | HEK-293T | cell death | – | 24 h, 10% cell death | – | lowest cytotoxic concentration | 256 µg/mL |
| C=C(C)[C@]12C[C@@H](C)[C@@]34O[C@](/C=C/C=C/CCCCCCCCC)(O[C@@H]1[C@@H]3[C@@H]1O[C@]1(CO)[C@@H](O)[C@]1(O)C(=O)C(C)=C[C@H]14)O2 | MT4 | cell growth or viability, ATP luminescence | – | – | – | IC50 | 9.4 µM |
| C=C(C)[C@]12C[C@@H](C)[C@@]34O[C@](c5ccccc5)(O[C@@H]1[C@@H]3[C@@H]1O[C@]1(CO)[C@@H](O)[C@]1(O)C(=O)C(C)=C[C@H]14)O2 | MT-4 | cell viability | – | – | – | IC50 | 19.7 ± 1.6 µM |
| CO[C@H]1/C=C\C=C(/C)C(=O)NC2=CC(=O)C(NCCN(C)C)=C(C[C@@H](C)C[C@H](OC)[C@H](O)[C@@H](C)/C=C(\C)[C@@H]1OC(N)=O)C2=O | TREx BCBL1-Rta | MTS | – | – | – | CC50 | 4.3 ± 0.9 µM |
| CC[C@H](C)[C@H](NC(=O)[C@H](CO)NC(=O)[C@@H]1CCCN1C(=O)[C@H](CO)NC(=O)[C@H](CCSC)NC(=O)CNC(=O)CNC(=O)CNC(=O)[C@H](CCCCN)NC(=O)[C@H](CC(C)C)NC(=O)[C@H](CCCCN)NC(=O)[C@H](CC(C)C)NC(=O)[C@H](CCCCN)NC(=O)[C@H](CC(C)C)NC(=O)[C@H](CC(C)C)NC(=O)[C@H](CC(C)C)NC(=O)CNC(=O)[C@H](CC(C)C)NC(=O)[C@H](CC(C)C)NC(=O)[C@H](CCCCN)NC(=O)[C@@H](N)CCCCN)C(=O)N[C@@H](CC(C)C)C(=O)N[C@@H](CCCCN)C(=O)N[C@@H](Cc1c[nH]cn1)C(=O)N[C@@H](Cc1c[nH]c2ccccc12)C(=O)N[C@@H](CO)C(=O)N[C@@H](CCCNC(=N)N)C(=O)N[C@@H](CCC(N)=O)C(=O)O | HEK-293T | cell death | – | 24 h, 10% cell death | – | lowest cytotoxic concentration | 256 µg/mL |
| CC(C)(C)[C@H](NC(=O)C(F)(F)F)C(=O)N1C[C@H]2[C@@H]([C@H]1C(=O)N[C@H](C#N)C[C@@H]1CCNC1=O)C2(C)C | RD | cytotoxicity | – | – | – | CC50 | > 100 µM |
| Cn1cnc(Cn2c(=O)[nH]/c(=N\c3cc4cn(C)nc4cc3Cl)n(Cc3cc(F)c(F)cc3F)c2=O)n1 | – | – | human, all renal function groups | oral, 375 mg, hypertriglyceridaemia TEAE, Moderate severity | – | patients with adverse event | 3.1% |
| CC[C@H](C)[C@H](NC(=O)[C@H](CC(C)C)NC(=O)[C@H](Cc1c[nH]c2ccccc12)NC(=O)[C@H](CCC(N)=O)NC(=O)[C@@H](NC(=O)[C@H](Cc1ccccc1)NC(=O)[C@H](C)NC(=O)[C@H](CCCCNC(=O)COCCOCCNC(=O)COCCOCCNC(=O)CC[C@H](NC(=O)CCCCCCCCCCCCCCCCCCC(=O)O)C(=O)O)NC(=O)[C@H](CCC(N)=O)NC(=O)[C@H](C)NC(=O)[C@@H](NC(=O)[C@H](CCCCN)NC(=O)[C@H](CC(=O)O)NC(=O)[C@H](CC(C)C)NC(=O)C(C)(C)NC(=O)[C@@H](NC(=O)[C@H](CO)NC(=O)[C@H](Cc1ccc(O)cc1)NC(=O)[C@H](CC(=O)O)NC(=O)[C@H](CO)NC(=O)[C@@H](NC(=O)[C@H](Cc1ccccc1)NC(=O)[C@@H](NC(=O)CNC(=O)[C@H](CCC(=O)O)NC(=O)C(C)(C)NC(=O)[C@@H](N)Cc1ccc(O)cc1)[C@@H](C)O)[C@@H](C)O)[C@@H](C)CC)[C@@H](C)CC)C(C)C)C(=O)N[C@@H](C)C(=O)NCC(=O)NCC(=O)N1CCC[C@H]1C(=O)N[C@@H](CO)C(=O)N[C@@H](CO)C(=O)NCC(=O)N[C@@H](C)C(=O)N1CCC[C@H]1C(=O)N1CCC[C@H]1C(=O)N1CCC[C@H]1C(=O)N[C@@H](CO)C(N)=O | – | item: Cough | healthy subjects | 5/5/8/10 mg titrated, multiple ascending dose | – | subjects with adverse events | 0% |
| Nc1ncnc2c([C@@H]3N[C@H](CO)[C@@H](O)[C@H]3O)c[nH]c12 | Nipah henipavirus | viral replication | HeLa, Malaysia | 3.1 µM | – | inhibition | 1.4% |
| C[C@H]1CCCC(=O)CCC/C=C/c2cc(O)cc(O)c2C(=O)O1 | BeWo | – | – | 24 h, vehicle co-incubation | – | CC50 | 183 ± 3.7 µM |
| C[C@H](NP(=O)(OC[C@@]1(F)O[C@@H](n2ccc(N)nc2=O)C(F)(F)[C@@H]1O)Oc1ccccc1)C(=O)OCc1ccccc1 (stereo partly drawn) | HEL embryonic lung fibroblasts | cell morphology, microscopy | – | – | – | minimum cytotoxic concentration | > 100 µM |
| CNC(=O)[C@@H](NC(=O)[C@H](CC(C)C)[C@H](O)C(=O)NO)C(C)(C)C | Daboia russelii venom proteases (SVMP) | protease activity, inhibitor | KA population | 0.1 µM, added: azocasein substrate | baseline: venom alone | remaining activity | 90% |

Repeated from above:
| Compound | target or system | assay | system | setting | how to read | measurement | result |
| --- | --- | --- | --- | --- | --- | --- | --- |
| C[C@H]1CCCC(=O)CCC/C=C/c2cc(O)cc(O)c2C(=O)O1 | BeWo | – | – | 24 h, vehicle co-incubation | – | CC50 | 183 ± 3.7 µM |
